# Measured values of several laboratories.
# Each numbered part is a random draw from the data of one study; scales do not carry over between parts. Several values in a cell are separate wells, animals, samples, runs or records. Positions count from the first letter of the parent shown.
# Sequence of UniProt P28335 (whole entry, looked up): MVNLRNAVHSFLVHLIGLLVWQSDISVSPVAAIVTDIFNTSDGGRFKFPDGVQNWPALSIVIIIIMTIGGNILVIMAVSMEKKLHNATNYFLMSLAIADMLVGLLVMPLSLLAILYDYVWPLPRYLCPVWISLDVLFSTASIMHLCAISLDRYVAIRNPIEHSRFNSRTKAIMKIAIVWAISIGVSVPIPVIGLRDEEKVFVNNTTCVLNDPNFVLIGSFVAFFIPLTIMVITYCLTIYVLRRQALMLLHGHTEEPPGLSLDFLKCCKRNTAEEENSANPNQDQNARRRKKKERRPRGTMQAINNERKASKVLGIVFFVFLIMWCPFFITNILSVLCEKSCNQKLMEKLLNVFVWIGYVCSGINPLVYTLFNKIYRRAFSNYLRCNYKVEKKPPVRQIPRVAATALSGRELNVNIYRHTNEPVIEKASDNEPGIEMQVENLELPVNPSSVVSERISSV

# Block 1
# Target: tungstate, free oxyanion
# Technique: microfluidic competitive inhibition
# Sample: in vitro, cell-free expressed
# Tested at: not given
# Setting: derived from inhibition constants, unchanged parent 2230 nM
# Reading: lower = stronger binding
# Starting sequence: PafA, mature enzyme, eGFP fusion (Elizabethkingia meningoseptica, UniProt Q9KJX5); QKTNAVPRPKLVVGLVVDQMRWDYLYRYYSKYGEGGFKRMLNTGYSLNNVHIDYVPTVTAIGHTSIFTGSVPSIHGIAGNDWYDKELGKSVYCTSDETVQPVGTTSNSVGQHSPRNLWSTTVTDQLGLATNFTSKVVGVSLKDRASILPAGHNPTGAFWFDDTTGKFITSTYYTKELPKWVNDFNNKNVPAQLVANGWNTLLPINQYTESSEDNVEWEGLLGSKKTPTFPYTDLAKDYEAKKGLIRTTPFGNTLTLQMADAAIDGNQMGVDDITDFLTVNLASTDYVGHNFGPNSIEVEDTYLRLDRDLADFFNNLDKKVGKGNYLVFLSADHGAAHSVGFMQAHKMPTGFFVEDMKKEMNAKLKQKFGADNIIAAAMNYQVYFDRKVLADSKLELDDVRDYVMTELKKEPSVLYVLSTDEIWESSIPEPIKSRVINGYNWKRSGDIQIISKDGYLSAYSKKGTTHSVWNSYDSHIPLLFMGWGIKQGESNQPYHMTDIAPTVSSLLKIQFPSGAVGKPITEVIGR
Change,oxyanion analog dissociation constant [µM]
L234V,2.16
V270A,2.34
L303V,2.21
K10V,2.18
D264V,1.89
K187G,2.13
D446V,1.98
N107V,2.24

# Block 2
# Target: CCND2, cyclin fold, Cln2 fusion (human)
# Technique: yeast growth competition, sequencing
# Sample: yeast
# Setting: weak parent motif
# Baseline: not given
# Reading: higher = stronger binding
# Starting sequence: viral docking peptide; CKVKRKLFGSENI; partner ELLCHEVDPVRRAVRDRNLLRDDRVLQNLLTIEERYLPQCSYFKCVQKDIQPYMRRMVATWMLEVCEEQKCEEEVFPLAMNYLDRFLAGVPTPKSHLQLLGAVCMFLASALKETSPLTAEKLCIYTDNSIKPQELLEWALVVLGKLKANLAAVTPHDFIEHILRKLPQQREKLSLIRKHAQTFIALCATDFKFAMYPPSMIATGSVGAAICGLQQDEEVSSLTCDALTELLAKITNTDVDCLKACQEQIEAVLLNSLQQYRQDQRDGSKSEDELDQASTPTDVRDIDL
Change,normalised enrichment score
CKVKRKLFGSANI [E11A],0.115
AKVKRKLFGSENI [C1A],0.113
CKVKRKLLGSENI [F8L],-0.037
CKVKRKLFGSENA [I13A],0.324
CKVKRKLAGSENI [F8A],-0.089
CKVKKKLLGSENI [R5K F8L],-0.178
CKVARKLFGSENI [K4A],0.295
CKVKRALFGSENI [K6A],0.316

# Mixed results
SMILES,target,assay,setting,scale,measurement,result
NC(CO)C(=O)NNCc1ccc(O)c(O)c1O (stereo not shown),chymotrypsin,"enzyme activity, inhibitor","10 µM, with DTT",,inhibition,0.4%
CCOCCn1cc(C(=O)Nc2ccc(-n3nc(-c4cccnc4)cc3C(F)(F)F)cn2)ccc1=O,"HTR2C (Homo sapiens, UniProt P28335)","binding, radioligand binding",10 µM,,inhibition,3.75%
CN(C(=O)c1ccn2ncc(-c3ccc(C(N)=O)cc3)c2c1)c1ccc(C#N)cn1,C. parvum PI4K Y705A,"enzyme activity, inhibitor, ADP-Glo",,baseline: mutant over wild type,fold IC50 shift,9.05 and 10.6

# Excerpt of the above (block 2):
Change,normalised enrichment score
AKVKRKLFGSENI [C1A],0.113
